Experimental data pooled from the literature.
A part holds a random share of what one study measured.
UniProt Q01959, sequence (whole entry, looked up): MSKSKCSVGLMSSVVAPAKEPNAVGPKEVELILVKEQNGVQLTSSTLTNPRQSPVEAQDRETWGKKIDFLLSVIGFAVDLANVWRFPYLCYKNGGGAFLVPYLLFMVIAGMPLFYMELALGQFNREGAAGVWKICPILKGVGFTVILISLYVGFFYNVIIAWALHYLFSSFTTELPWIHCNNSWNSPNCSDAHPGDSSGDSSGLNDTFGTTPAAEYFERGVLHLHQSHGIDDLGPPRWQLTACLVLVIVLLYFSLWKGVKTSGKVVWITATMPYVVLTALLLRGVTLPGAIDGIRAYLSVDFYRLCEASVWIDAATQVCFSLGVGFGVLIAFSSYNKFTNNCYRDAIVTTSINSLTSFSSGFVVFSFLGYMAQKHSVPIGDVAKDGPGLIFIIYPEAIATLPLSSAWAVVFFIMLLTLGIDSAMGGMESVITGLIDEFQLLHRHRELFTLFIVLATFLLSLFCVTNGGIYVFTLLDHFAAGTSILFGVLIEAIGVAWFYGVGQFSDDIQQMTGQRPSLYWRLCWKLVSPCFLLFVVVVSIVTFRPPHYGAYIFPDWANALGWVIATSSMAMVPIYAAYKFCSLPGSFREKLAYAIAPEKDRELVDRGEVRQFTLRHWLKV
UniProt Q96SW2, sequence (whole entry, looked up): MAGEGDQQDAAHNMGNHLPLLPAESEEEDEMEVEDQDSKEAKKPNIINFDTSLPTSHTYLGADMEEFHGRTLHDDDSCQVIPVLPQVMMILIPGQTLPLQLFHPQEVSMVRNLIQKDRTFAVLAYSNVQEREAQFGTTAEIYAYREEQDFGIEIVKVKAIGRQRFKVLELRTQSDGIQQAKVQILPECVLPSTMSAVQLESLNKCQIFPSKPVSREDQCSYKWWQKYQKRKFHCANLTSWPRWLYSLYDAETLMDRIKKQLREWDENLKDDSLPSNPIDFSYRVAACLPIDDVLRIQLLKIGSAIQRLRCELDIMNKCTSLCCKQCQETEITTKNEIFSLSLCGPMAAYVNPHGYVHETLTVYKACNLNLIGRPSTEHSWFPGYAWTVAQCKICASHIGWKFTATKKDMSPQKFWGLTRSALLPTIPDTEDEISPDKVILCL
UniProt Q9UKS7, sequence (whole entry, looked up): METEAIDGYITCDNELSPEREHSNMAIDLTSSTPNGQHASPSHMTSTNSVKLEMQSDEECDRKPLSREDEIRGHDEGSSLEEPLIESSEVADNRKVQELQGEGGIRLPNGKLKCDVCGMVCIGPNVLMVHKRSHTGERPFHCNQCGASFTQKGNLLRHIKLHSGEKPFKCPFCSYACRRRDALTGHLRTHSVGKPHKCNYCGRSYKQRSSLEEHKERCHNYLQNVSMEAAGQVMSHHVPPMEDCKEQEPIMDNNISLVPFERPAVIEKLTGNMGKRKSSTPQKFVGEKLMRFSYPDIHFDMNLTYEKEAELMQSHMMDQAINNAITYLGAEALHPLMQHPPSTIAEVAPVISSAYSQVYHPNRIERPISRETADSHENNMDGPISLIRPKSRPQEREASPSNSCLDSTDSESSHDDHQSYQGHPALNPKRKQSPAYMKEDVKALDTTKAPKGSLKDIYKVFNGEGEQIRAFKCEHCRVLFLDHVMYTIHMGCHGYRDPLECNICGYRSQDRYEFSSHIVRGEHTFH
UniProt P55212, sequence (whole entry, looked up): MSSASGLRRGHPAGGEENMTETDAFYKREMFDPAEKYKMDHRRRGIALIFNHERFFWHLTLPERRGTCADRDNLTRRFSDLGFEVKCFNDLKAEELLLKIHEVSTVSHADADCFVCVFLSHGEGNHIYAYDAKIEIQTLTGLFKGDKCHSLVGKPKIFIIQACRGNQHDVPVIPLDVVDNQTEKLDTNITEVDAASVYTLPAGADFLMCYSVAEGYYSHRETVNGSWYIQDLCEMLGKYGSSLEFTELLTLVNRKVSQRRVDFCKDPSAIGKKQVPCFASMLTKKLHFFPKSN

Sample 1 — target: UBE2A UBC core domain (UniProt P49459); method: yeast two-hybrid; matrix: yeast; setting: mostly zero background; relative to: not given; direction: higher = stronger interaction
UniProt P49459, sequence (whole entry, looked up): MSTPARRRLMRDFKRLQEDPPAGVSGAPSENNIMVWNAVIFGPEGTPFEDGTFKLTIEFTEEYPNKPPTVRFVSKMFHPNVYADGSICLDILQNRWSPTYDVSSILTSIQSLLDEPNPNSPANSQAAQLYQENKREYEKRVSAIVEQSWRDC
B1: UHRF2 RING domain (UniProt Q96PU4); chain CGGDPEKKCHSCSCRVCGGKHEPNMQLLCDECNVAYHIYCLNPPLDKVPEEEYWYCPSCKTDSSEVVKAGER
B2: IRF2BPL RING domain (UniProt Q9H1B7); chain SPMANSGPLCCTICHERLEDTHFVQCPSVPSHKFCFPCSRESIKAQGATGEVYCPSGEKCPLVGSNVP
B3: RNF25 RING domain (UniProt Q96BH1); chain LTDNNIPHGQCVICLYGFQEKEAFTKTPCYHYFHCHCLARYIQHMEQELKAQGQEQEQERQHATTKQKAVGVQCPVCREPLVYDLASL
B4: PHF21A RING domain (UniProt Q96BD5); chain SPTSTDGDIHEDFCSVCRKSGQLLMCDTCSRVYHLDCLDPPLKTIPKGMWICPRCQDQMLKKEEAIPW
B5: TRIM72 RING domain (UniProt Q6ZMU5); chain APGLLHQELSCPLCLQLFDAPVTAECGHSFCRACLGRVAGEPAADGTVLCPCCQAPTRPQALST
B6: CUL9 RING domain (UniProt Q8IWT3); chain AQAVPVRPDHCPVCVSPLGCDDDLPSLCCMHYCCKSCWNEYLTTRIEQNLVLNCTCPIADCPAQPTGAFIR
`QLRRLQEERTCKVCMDKEVSVVFIPCGHLVVCQECAPSLRKCPICRGIIKGTVRTF (BIRC2 RING domain (UniProt Q13490))` — result for “lacZ reporter activity”: 0.
`B1 (UHRF2 RING domain)` — result for “lacZ reporter activity”: 0.
`QLQDIKEQTMCPVCLDRLKNMIFLCGHGTCQLCGDRMSECPICRKAIERRILLY (MIB1 RING domain (UniProt Q86YT6))`: “lacZ reporter activity” 0.
For `B2 (IRF2BPL RING domain)`, “lacZ reporter activity” read 0.
`B3 (RNF25 RING domain)` — result for “lacZ reporter activity”: 0.
Under “lacZ reporter activity”, `B4 (PHF21A RING domain)` is recorded as 0.
`B5 (TRIM72 RING domain)` — result for “lacZ reporter activity”: 0.
For `B6 (CUL9 RING domain)`, “lacZ reporter activity” read 0.

Sample 2 — cell line: HEK-293T/ACE2; concentration: 10 µM; time: 16 h; relative to: vehicle
The viability of `NC(=O)CC[C@H](N)C(=O)O` is reported as 99.2%.
`CO/N=C(\C(=O)N[C@@H]1C(=O)N2C(C(=O)O)=C(C[N+]3(C)CCCC3)CS[C@H]12)c1csc(N)n1` has a viability of 98.8%.
For `O=c1[nH]c(=O)n([C@H]2C[C@H](O)[C@@H](CO)O2)cc1I`, the viability was 94.9%.
`C[C@H](CCC(=O)O)[C@H]1CC[C@H]2[C@@H]3[C@@H](O)C[C@@H]4C[C@H](O)CC[C@]4(C)[C@H]3CC[C@]12C` has a viability of 103%.
`NS(=O)(=O)c1cc2c(cc1Cl)N=C(CSCc1ccccc1)NS2(=O)=O` gave a viability of 105%.
For `NS(=O)(=O)c1cc2c(cc1Cl)N=CNS2(=O)=O`, the viability was 103%.
`CC1(C)O[C@@H]2[C@@H](CO[C@@]3(COS(N)(=O)=O)OC(C)(C)O[C@@H]23)O1` gave a viability of 102%.
The viability of `Cc1c(OCC(F)(F)F)ccnc1C[S+]([O-])c1nc2ccccc2[nH]1` (stereo not drawn) is reported as 98%.
With `C[N+](C)(C)CCCCCCCCCC[N+](C)(C)C` the viability was 99.5%.
`Nc1ccn([C@@H]2CS[C@H](CO)O2)c(=O)n1` gave a viability of 103%.
For `O=C(O)CCCc1ccccc1`, the viability was 100%.
With `NCCCCCC(=O)O` the viability was 104%.
The viability of `CCC(=O)NCC[C@@H]1CCc2ccc3c(c21)CCO3` is reported as 96%.
`CCOC(=O)C1=C(COCCN)NC(C)=C(C(=O)OC)C1c1ccccc1Cl` (stereo not drawn) gave a viability of 96.5%.
The viability of `O=C(O)CCCCCCCC(=O)O` is reported as 101%.
With `Nc1ccc(S(=O)(=O)Nc2nccs2)cc1` the viability was 105%.
`Cc1nc(Nc2ncc(C(=O)Nc3c(C)cccc3Cl)s2)cc(N2CCN(CCO)CC2)n1` gave a viability of 104%.

Sample 3 — read-out: peptide-MHC binding; molecule type: peptide; concentration: concentration not given
Target: HLA class I histocompatibility antigen, A alpha chain, allele A*80:01 (Homo sapiens, UniProt P04439)
For `MFKNFPFFK`, binding read “inactive”.
For `DELWRGLLA`, binding read “inactive”.
For `KLIDVSKCI`, binding read “inactive”.
For `ESLLHQASW`, binding read “inactive”.
Under binding, `SVHYKFVTK` is recorded as “inactive”.
Under binding, `YQTYVSPGA` is recorded as “inactive”.
`LPRERFRKT`: binding “inactive”.
`SELTVSPPD` — result for binding: “inactive”.

Other studies, line by line
CAMK2A: Calcium/calmodulin-dependent protein kinase type II subunit alpha (CAMK2A, Homo sapiens, UniProt Q9UQM7)
UniProt Q9UQM7, sequence (whole entry, looked up): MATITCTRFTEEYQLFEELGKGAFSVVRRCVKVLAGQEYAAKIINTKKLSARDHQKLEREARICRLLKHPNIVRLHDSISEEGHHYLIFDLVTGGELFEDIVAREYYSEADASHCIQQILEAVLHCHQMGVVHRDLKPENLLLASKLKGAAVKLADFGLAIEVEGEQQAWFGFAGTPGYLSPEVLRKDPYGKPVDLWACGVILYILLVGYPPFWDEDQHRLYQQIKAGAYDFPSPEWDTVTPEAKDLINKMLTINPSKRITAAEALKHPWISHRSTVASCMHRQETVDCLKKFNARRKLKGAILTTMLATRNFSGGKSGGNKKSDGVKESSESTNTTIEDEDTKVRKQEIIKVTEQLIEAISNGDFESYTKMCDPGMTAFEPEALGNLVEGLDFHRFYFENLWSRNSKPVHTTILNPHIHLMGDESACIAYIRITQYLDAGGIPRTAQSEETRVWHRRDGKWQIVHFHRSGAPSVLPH
With `CC(C)[C@@]1(NC(=O)[C@@H]2C[C@@H]3c4cccc5[nH]cc(c45)C[C@H]3N(C)C2)O[C@@]2(O)[C@@H]3CCCN3C(=O)[C@H](Cc3ccccc3)N2C1=O` the inhibition was -3% (CAMK2A; enzyme activity, inhibitor; 10 µM).
The IC50 of `Ac-DEVD-CHO` is reported as 65.9 nM (Caspase-6 (CASP6, Homo sapiens, UniProt P55212)).
`CC1=C2C[C@H]3[C@@H](CC(=O)[C@H]4C[C@@H](O)CC[C@@]43C)[C@@H]2CC[C@]12O[C@@H]1C[C@H](C)CN[C@H]1[C@H]2C` has an inhibition of 7% (CAMK2A; enzyme activity, inhibitor; 10 µM).
With `CN(C)C(=O)c1sc2nc(N3CCC(S(C)(=O)=O)CC3)cc(C(F)(F)F)c2c1N` the inhibition was 80.5% (Sodium-dependent dopamine transporter (SLC6A3, Homo sapiens, UniProt Q01959); ligand displacement; 10 µM).
For `CC1=CC(=O)[C@@H](O)[C@]2(C)[C@H]3[C@@H](O)[C@H](O)[C@@]4(CO)OC[C@@]35[C@@H](C[C@@H]12)OC(=O)[C@H](O)[C@]54O`, the inhibition was 3% (CAMK2A; enzyme activity, inhibitor; 10 µM).
With `O=C1CCC(N2Cc3c(ccc4c3OCC43CCN(Cc4ccsc4)CC3)C2=O)C(=O)N1` (stereo not drawn) the protein remaining was 40.2% (CRBN/Zinc finger protein Helios (Homo sapiens, UniProt Q96SW2+Q9UKS7); degrader, HiBiT; HEK293; 13.72 nM).

Excerpt of the above (sample 3):
Under binding, `SVHYKFVTK` is recorded as “inactive”.
Under binding, `YQTYVSPGA` is recorded as “inactive”.
